Measured values collected from several papers.
Parts stem from different laboratories: compare values within a part only.

Set 1
Target: Prothrombin, mature alpha-thrombin (F2, Homo sapiens, UniProt P00734)
Technique: aptamer microarray, sandwich
Molecule type: DNA with 2'F-ANA
Sample: in vitro
Tested at: 200 nM
Notes: whole 15-mer aptamer, many near background
Together with: Cy3 exosite-II aptamer, 400 nM
Reading: higher = stronger binding
Oligonucleotide: GGTTGGTGTGGTTGG
| Modification | mean fluorescence intensity |
| --- | --- |
| 2'F-ANA at 1 2 3 5 8 12 13 15 | 100 a.u. |
| 2'F-ANA at 1 3 4 6 7 8 9 11 13 | 135 a.u. |
| 2'F-ANA at 2 6 7 9 12 | 635 a.u. |
| 2'F-ANA at 1 2 6 7 8 15 | 202 a.u. |
| 2'F-ANA at 7 9 10 11 13 15 | 155 a.u. |
| 2'F-ANA at 1 3 5 10 14 | 79.6 a.u. |
| 2'F-ANA at 2 3 5 6 7 8 13 15 | 80.3 a.u. |
| 2'F-ANA at 1 2 3 4 7 8 9 10 12 | 78.8 a.u. |
| 2'F-ANA at 3 5 10 11 12 13 | 61.9 a.u. |
| 2'F-ANA at 1 3 4 5 8 11 12 15 | 92.7 a.u. |
| 2'F-ANA at 1 5 6 10 11 12 15 | 82.5 a.u. |
| 2'F-ANA at 3 6 7 15 | 1010 a.u. |
| 2'F-ANA at 5 6 7 8 9 11 12 | 119 a.u. |
| 2'F-ANA at 1 2 4 6 8 9 11 12 13 14 15 | 71.8 a.u. |
| 2'F-ANA at 1 3 9 12 15 | 562 a.u. |
| 2'F-ANA at 1 2 3 8 9 13 14 15 | 120 a.u. |

Set 2
Target: Centromere-binding protein 1, full length, N-terminal tag (CBF1, Saccharomyces cerevisiae, UniProt P17106, residues 1-351)
Chain of UniProt P17106 (whole entry, looked up): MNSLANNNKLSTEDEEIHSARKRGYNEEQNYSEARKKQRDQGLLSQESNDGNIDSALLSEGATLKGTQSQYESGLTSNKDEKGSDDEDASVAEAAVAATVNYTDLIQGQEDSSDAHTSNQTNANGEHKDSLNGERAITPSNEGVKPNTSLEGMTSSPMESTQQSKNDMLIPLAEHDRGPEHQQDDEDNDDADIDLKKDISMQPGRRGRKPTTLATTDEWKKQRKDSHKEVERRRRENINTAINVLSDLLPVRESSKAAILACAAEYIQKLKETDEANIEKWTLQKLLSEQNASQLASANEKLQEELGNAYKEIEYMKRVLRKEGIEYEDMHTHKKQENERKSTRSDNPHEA
Technique: protein-binding microarray
Molecule type: double-stranded DNA, one strand shown
Sample: in vitro
Tested at: 0.8 µM
Notes: whole 60-bp probe, no competitor
Reading: higher = stronger binding
Constant ends, left off below: … GTCTTGATTCGCTTGACGCTGCTG
| Oligonucleotide | fluorescence intensity |
| --- | --- |
| CTATAACTTGACTCGCACATGCCTGCTGGGTCATTC | 579 a.u. |
| CTATAGTATCCACTTCGTGTGACATTACTATAATTC | 558 a.u. |
| TGTACGAAGCTATTGCGCACTCTTATAGTAGTTAGG | 501 a.u. |
| GAAAGCTTTATGAGTACCGTCACGTTTCCTGTTTAG | 2140 a.u. |
| GAATAGTAATTTACACACGAGGTGAGGAATACGTAG | 653 a.u. |
| GAACTTTCCCTTTCACTCGTGCGGTTTTACCAGTAG | 533 a.u. |
| CTAGTTAAGTGTAGATAGGTGACGCTAGAGCCGTTC | 502 a.u. |
| GAATCTCCTCTCACTCACGTACGGCTCTTAATTTAG | 500 a.u. |
| GAAGTGGTTATTGATCACCAGAAAGTTTGGCATTAG | 543 a.u. |
| CTATAAACGCATTGCTTCGTGGTCAGTAGTAACTTC | 551 a.u. |
| GAACAGCGCGTATGTGGTGTGGTGTGTGTTTTGTAG | 567 a.u. |
| GAAAATAATAGTAATGGCGTGAGCCTATGTGTATAG | 527 a.u. |
| GAACAATTCTTTGACATCAGCAGCACGCTGCTATAG | 554 a.u. |
| GAAGCACTTTTTATGCACGTGCATCGTACAATTTAG | 11400 a.u. |
| CTAGATGAGCATGATCATGAGATTTAAACTTCTTTC | 729 a.u. |
| GAAGCTTTTGTCCTACACGAGGAATGTATCAAATAG | 593 a.u. |
| GAAGAACAAAAACAAAACGTGGGTAAAGAACAATAG | 591 a.u. |
| GAACAAAACATAGTTTGCGTGATAACAGCGTGTTAG | 520 a.u. |

Set 3
Target: Interferon regulatory factor 7, full length, phosphomimetic (IRF7, Homo sapiens, UniProt Q92985, residues 1-503, S471D/S472D/S475D/S476D/S477D/S483D/S484D/S487D)
Chain of UniProt Q92985 (whole entry, unmodified, looked up): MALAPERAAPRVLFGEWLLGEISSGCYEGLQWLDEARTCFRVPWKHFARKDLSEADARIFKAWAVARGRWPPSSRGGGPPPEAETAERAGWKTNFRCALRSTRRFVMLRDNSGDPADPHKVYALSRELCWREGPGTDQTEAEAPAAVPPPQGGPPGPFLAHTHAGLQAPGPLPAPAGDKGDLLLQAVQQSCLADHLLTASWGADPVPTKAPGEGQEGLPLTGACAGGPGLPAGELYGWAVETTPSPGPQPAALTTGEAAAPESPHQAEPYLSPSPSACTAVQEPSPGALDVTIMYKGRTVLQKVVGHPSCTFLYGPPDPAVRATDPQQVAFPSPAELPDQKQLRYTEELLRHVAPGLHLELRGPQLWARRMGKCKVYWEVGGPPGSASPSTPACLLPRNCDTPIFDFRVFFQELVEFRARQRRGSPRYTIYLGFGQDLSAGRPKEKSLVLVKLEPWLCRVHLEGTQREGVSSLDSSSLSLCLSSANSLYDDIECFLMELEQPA
Technique: protein-binding microarray
Molecule type: double-stranded DNA, one strand shown
Sample: in vitro
Tested at: 2200 nM top
Notes: 60-bp whole probe
Together with: salmon DNA 0.4 mg/ml
Reference: random background probes
Reading: higher = stronger binding
Constant ends, left off below: GCCTAGCAC … GTCTTGATTCGCTTGACGCTGCTG
| Oligonucleotide | fitted relative affinity [z-score] |
| --- | --- |
| GACGGTTTCGACTGTCGGGACGTGCTA | 3.24 |
| TTAGGTATCTGGACTGGGTTAGTGCTA | -0.3 |
| GACGAACTGAGTATCGAGATGTGCTAG | 0.00739 |
| GACGGTTTCGGACTGTGGACGTGCTAG | 3.98 |
| ATGTTTTGAGTTTTCCTTCAGTGCTAG | 2.71 |
| TTGGGTATCCTTCTCCTTTAGTGCTAG | 1.19 |
| TCATCTCTGAAGACTCTCACTGTGCTA | 0.487 |
| GACGATATCAGTATCGAGAAGTGCTAG | 0.0832 |
| TCATCTATGTAGTTGATACTGTGCTAG | 1.44 |
| TTAGGTATCGGACTGGGTAAGTGCTAG | -0.0949 |
| TTAGATTTCAGACTTGATTAGTGCTAG | 0.108 |
| GACGGATTCCTTTTCCTGACGTGCTAG | 1.97 |
| TCATATTGCTTTCTCTTACTGTGCTAG | 2.52 |
| TTAGGTTTCGATTTTCGGTTAGTGCTA | 12.4 |
| TCATCTTTTTTTCTTTTACTGTGCTAG | 2.56 |
| TTGGTTCTTATCCTTCCCCTCGTGCTA | 2.06 |
| TCCTGTGTCTTAAATAGGGCAGTGCTA | 0.0259 |

Set 4
Target: Sal-like protein 4, full length isoform A (SALL4, Homo sapiens, UniProt Q9UJQ4, residues 1-1053)
Chain of UniProt Q9UJQ4 (whole entry, looked up): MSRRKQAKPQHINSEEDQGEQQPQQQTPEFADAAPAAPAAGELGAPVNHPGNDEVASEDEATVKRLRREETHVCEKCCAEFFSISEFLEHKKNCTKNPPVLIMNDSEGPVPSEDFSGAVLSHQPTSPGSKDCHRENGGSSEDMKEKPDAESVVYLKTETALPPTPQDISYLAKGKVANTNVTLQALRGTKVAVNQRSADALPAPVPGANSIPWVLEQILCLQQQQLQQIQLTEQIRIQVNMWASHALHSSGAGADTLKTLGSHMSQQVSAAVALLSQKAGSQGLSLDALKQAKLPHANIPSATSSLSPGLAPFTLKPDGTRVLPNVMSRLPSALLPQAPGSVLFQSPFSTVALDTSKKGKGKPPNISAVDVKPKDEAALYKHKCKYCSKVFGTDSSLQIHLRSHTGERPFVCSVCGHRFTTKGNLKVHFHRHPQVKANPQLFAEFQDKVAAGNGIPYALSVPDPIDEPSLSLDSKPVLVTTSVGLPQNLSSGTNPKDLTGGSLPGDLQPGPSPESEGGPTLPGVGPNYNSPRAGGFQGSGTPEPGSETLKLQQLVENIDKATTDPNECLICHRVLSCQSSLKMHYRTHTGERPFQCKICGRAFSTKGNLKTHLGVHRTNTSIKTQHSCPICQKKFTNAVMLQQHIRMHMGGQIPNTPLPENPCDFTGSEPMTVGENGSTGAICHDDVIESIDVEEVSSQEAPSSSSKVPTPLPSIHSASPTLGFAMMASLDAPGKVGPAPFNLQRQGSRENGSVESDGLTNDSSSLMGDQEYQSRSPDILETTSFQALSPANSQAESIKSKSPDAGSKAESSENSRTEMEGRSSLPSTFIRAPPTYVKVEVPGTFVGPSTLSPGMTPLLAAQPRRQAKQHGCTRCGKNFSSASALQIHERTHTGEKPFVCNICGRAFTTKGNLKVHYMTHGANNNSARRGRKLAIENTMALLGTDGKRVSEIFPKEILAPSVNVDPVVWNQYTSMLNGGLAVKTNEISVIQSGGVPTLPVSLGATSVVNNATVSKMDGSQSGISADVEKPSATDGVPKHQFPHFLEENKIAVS
Technique: universal PBM
Molecule type: double-stranded DNA, one strand shown
Sample: in vitro
Tested at: 600 nM
Notes: 8-mer, flanks averaged, mean of replicates
Reading: higher = stronger binding
| Oligonucleotide | E-score |
| --- | --- |
| CGGTAGAG | -0.294 |
| CTCCGCAC | -0.285 |
| CACCGCAG | -0.106 |
| GGCATATA | 0.325 |
| TACTTAAA | 0.211 |
| CTCTTATA | 0.301 |
| ACCCTGAC | -0.169 |
| CTCCATGC | -0.155 |
| ACGCCGGC | -0.289 |
| CGACCTGC | -0.167 |
| GTGGCGAA | -0.0838 |
| ACCCTCCG | -0.348 |
| CCACATAG | -0.175 |
| ACCGACAA | -0.0722 |
| TGGGCACA | -0.187 |
| ACCCCACG | -0.323 |
| CAGGATCG | -0.242 |

Set 5
Target: RNA binding protein fox-1 homolog 2, RRM domain, GST-SBP tag (RBFOX2, Homo sapiens, UniProt O43251-10, residues 100-194)
Technique: RNA Bind-n-Seq
Molecule type: RNA
Sample: in vitro
Tested at: 365 nM
Notes: natural RNA segment, single round, ends assumed
Reference: no-protein control
Reading: higher = stronger binding
Constant ends, left off below: GGGAGUUCUACAGUCCGACGAUC … UGGAAUUCUCGGGUGCCAA
Residues (chain): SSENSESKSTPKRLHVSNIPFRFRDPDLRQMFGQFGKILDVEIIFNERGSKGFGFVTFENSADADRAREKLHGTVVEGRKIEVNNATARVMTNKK
| Oligonucleotide | RBNS enrichment (R) |
| --- | --- |
| GAGACACUUUAGGAAGAUAAACUGAGCUUGAUCCUCAUCAUAUAGCCAGUUCCAUCACUCAGGUAGUGCCUGAAUCAACCUUCAGAGCCUGAUUAGUCACAUAUCAUUGG | 0.301 |
| GUCAUAUAUGCUUAUUGUUUUGUUCCAUGUGAUUCUUGUUUCCCUAUGCUCUUUAAUGGAGAAUCUGUUGUCGAAAGGAAGAUGGCCAGAAAUAAGAACUUCAGGACCAC | 1.17 |
| GUGGCGGUGGUGGCAGCAGUGAUCCAUGAGCCUACAGAGGCCCCUCCCCCAGCCAGGUUCUGCUCUGGCUGGGCCCUUGGCUGGACUCCUAUUCAAAUUUAUUUGACGUU | 0.313 |
| AAGACAUUCGUUUGCUUUAGUGAAACUCCCUCGCUCCAGCCUCUCUAAGUAGCUCUUCCCGCUGUGUCCGUGUGCACACUGUAGCCCCACAGCCCCGUAGAACCUGCAGU | 0.834 |
| AGCUGUGUGCGUGUGAAUUUAUACUGUUUCAAAAAUUUCAAAUGCAUGGUAGCAUGUAGAAAGGUUUUUGUUACUAUGUGUGUGUGUGUGUUUUGUUUUGUUUUGUUCUG | 0.865 |
| UAUGUGGUUACAAAUAUAUGUCAAUGUACAUUUUGAACAUAUUUAUGUGCUAUGGAAGGAAAUGCUGGUGACUAAAAUAAGGUUUACUCUGAAAGAGGAGGAAUUUUAUU | 0.34 |
| UUUUGCCAUUUUUGAAAGUAUUAGUAAAAUCAUGGAAUACAUCACAGAACAGCUGUCCAUCAGUGAGCUUGUACAGUGCUGAUUUGCAGCUCCAACAUGCGGGAUGUUCA | 1.3 |
| CUGCCAGUGAAGGAAAAUGGUCAUCCUUAGUACACAGAAAAGUAUGUUUUCACUUUUCCUUGUUCGGGAAUGAUAAGGGCAAUGCUUUUUGAGGUUUAACUAACAAGGAU | 0.444 |
| AUCUUGAGCUCCGAGUUGGAAGGAGAAAAUGAGAAGUUAACCCCUUGAGCCAUGUGGUCUCUUUACAAUCAAGAGACUGUACAUAUGUGAAAAAAUACAAAUUAAGGACC | 0.488 |
| CAUUUUGCUCAAAAGUUUUUAAGAAAUGACAACAAAAAAAGCAAGUUACAAGAAUGUGGCAAUUCUAUUUGUCCAAGAGCAUUCUUACACAACUUUCUUUUGUAAAUUUU | 0.586 |
| GAGAUGUGAGGAUUUAGAUGUUUGCUAACUUCAAAACUGUGCUUGAAUAGACUAAUAAUAUAUGCUCUAUCAGAUGUCAGUUUUCAUUUAACUUGAUUCAUUUUUGGCUC | 0.351 |
| UCCUCCUCCAGAAGCGGUGGUCCAGGGGGUGGGGCUCUUAGUCCCUCUGGCCUUCCCCAUAUUACACACCAGCACUUUAUAUAUUUUUGGCUCACAGGAGGAGUCUAGGG | 0.662 |

Repeated from above (set 3):
| Oligonucleotide | fitted relative affinity [z-score] |
| --- | --- |
| GACGGTTTCGGACTGTGGACGTGCTAG | 3.98 |
| ATGTTTTGAGTTTTCCTTCAGTGCTAG | 2.71 |
| TTGGGTATCCTTCTCCTTTAGTGCTAG | 1.19 |
| TCATCTCTGAAGACTCTCACTGTGCTA | 0.487 |
| GACGATATCAGTATCGAGAAGTGCTAG | 0.0832 |
| TCATCTATGTAGTTGATACTGTGCTAG | 1.44 |
| TTAGGTATCGGACTGGGTAAGTGCTAG | -0.0949 |
| TTAGATTTCAGACTTGATTAGTGCTAG | 0.108 |
| GACGGATTCCTTTTCCTGACGTGCTAG | 1.97 |
